Experimental data from different studies.
Each numbered part is a random draw from the data of one study; scales do not carry over between parts. Positions count from the first letter of the parent shown.

Sample 1
Target: CCNB3, cyclin fold, Cln2 fusion (human)
Technique: yeast growth competition, sequencing
Sample: yeast
Setting: strong parent motif
Baseline: not given
Direction: higher = stronger binding
Parent: BRCA2 docking peptide (human); PSIKRNLLNEFDR; partner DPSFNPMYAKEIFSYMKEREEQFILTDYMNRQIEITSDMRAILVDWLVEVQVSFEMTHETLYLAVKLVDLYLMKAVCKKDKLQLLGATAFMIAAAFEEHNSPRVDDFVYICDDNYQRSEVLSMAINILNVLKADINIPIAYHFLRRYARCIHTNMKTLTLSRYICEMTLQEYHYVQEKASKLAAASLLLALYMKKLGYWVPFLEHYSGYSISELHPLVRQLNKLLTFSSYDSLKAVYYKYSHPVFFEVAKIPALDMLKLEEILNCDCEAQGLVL
For `K4H`, “normalised enrichment score” read -0.0577.
Under “normalised enrichment score”, `L7H` is recorded as -0.105.
`R5A`: “normalised enrichment score” 0.218.
`R13Y` — result for “normalised enrichment score”: 1.46.

Sample 2
Target: RING finger protein unkempt homolog, zinc fingers 1-6, SBP tag (UNK, Homo sapiens, UniProt Q9C0B0, residues 30-357)
Sequence of UniProt Q9C0B0 (30-357, looked up): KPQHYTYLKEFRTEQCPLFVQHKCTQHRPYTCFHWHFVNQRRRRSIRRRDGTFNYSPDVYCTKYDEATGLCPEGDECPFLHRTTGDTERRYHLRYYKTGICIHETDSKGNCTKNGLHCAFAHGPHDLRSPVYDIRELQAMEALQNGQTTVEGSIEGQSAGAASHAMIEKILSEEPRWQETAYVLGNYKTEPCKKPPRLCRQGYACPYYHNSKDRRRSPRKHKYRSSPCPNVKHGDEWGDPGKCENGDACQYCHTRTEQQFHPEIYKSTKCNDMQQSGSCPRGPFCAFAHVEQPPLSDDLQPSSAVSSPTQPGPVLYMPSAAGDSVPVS
Technique: RNA Bind-n-Seq
Form: RNA
Sample: in vitro
Tested at: 100 nM
Setting: RNA with constant flanks, vertebrate orthologous sites, ends assumed
Baseline: input RNA pool
Direction: higher = stronger binding
Constant ends, left off below: GGGAGUUCUACAGUCCGACGAUC … CAACAGAGGAUUGAGCAUCA
`GUCAUCCGAUUGGAUGAAGACCGUCCCGAGUUACAACCAAACCAACAGCUCCAUGGACUUCAGAAAUUACAUGCUGAGAGAUGAGAAUCUGGAACCACUGCCCCAAAACUGGGAGAUGGC` gave a bound/input enrichment of 0.243 ratio.
`GCCUCCAACAGGCAAAUUCAGGGAGAGGUAGGUUUCAGGGAAUAUAAAUUUACUUAAUAUUAGUGGUCUUUAAGUAUAAACUUGAUGUAAUUGGUUUGGGAGGGGCAGUGAUAAUGACUU` gave a bound/input enrichment of 1.23 ratio.
With `AGCAAGCCAAGGACUCAGGACUGGUUUUACAAAUAUGCCAAGUAGAUAUGGAACUAACAAUAGAAUUGGACAACCAAGACCAUGAUGUACUGUACUUUAAUUUAUUUUUAUGAGGAAUAU` the bound/input enrichment was 0.868 ratio.
With `UUAGGUAGGGGUAACCAUUAAUUUACUUAAACUAAAGAAAUGAAAUGUUGAAAAUCAUAUUAGUACUAAGUUUGGUUGGAAAAUUUCUCCAGCUAAACUUCCUUCUCUCAUCCUCCAUCC` the bound/input enrichment was 1.18 ratio.
The bound/input enrichment of `GUGUUUUGGUACCACUUGAUGUACCAAUACUCAUCCUUUUUUCAUUAUACCAACUAUCGCUAGAAGUAGGAGUUUAAUAUUUUUAAAAAUUUUACAUUGCUGUAUAUUCAAAAUUUUAAA` is reported as 0.699 ratio.
`UAUCUUUAGGAUGAAGCUCUUGCACCGAGUGUCACAGGUCUGGAAAACAGAUGGCUUGACAAGUUGUUCUUAUAAAUUAUUGUCUGUGGAACACAAUCCUUUAUAUAUCAACAUCACCGU` gave a bound/input enrichment of 0.84 ratio.
For `AUUCAAACCUGUGGUACCCUGGCCUCAUGUUGAAGGAGUAGAAGUGGACUUAGAGUCUAUUAGAAGAAAAAACAAAGCCAAAAAUGAACAGGAGCGCCAUGCUGGAGGAGAUUCCCAGAA`, the bound/input enrichment was 0.454 ratio.

Sample 3
Target: RNA binding protein fox-1 homolog 2, RRM domain, GST-SBP tag (RBFOX2, Homo sapiens, UniProt O43251-10, residues 100-194)
Technique: RNA Bind-n-Seq
Form: RNA
Sample: in vitro
Tested at: 365 nM
Setting: natural RNA segment, single round, ends assumed
Baseline: no-protein control
Direction: higher = stronger binding
Constant ends, left off below: GGGAGUUCUACAGUCCGACGAUC … UGGAAUUCUCGGGUGCCAA
Residues (chain): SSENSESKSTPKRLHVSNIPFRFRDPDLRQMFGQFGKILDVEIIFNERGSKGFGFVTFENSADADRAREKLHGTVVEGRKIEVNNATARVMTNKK
For `AGAAAGAGCCAAAUAUGAUGAUCACAGCUUAUAGUAGCAGUAAAACUGUUUUCUUUCUUUUUUCCUGUCUCCCUCCCGUCCUUUGUGGUGGGAGGGCAGGAGGCCCAAUG`, “RBNS enrichment (R)” read 0.28.
For `GUAAAAGUAUGAUGUAAAUUUUCAGUGCAAUGUAAACAAAAUAAAAAUGGAUAAUUGCUUUUGUAAAUGUGUUUUUUUUUCCAAAAAUAAACUGCAACUGUUCAGGUUAG`, “RBNS enrichment (R)” read 0.481.
`GGGCCGAGGAGGGCGGCUGCUCUGUCAUGAGAAUGUACGGCCCGUGGAUGAUUAACGGGCCUUUUUCACUUAGAAGCUGCACAUUAUGGAGCAUUAAACACUUUUGUCAU` — result for “RBNS enrichment (R)”: 1.25.
Under “RBNS enrichment (R)”, `AUUCCUCAUCUCAAGGCCACCAGUCCCCAGUUAUCACCCUUGGAAAUCCUCUGUUUAGCUUAGUUGCACAAAAGGUAGUAUGUCCAGUGGCUAGAGGUGGGGUGGGAAGA` is recorded as 0.504.
Under “RBNS enrichment (R)”, `GAUCUCAUUAAAUGGUGAUUUCUCACUAUGCUCCAGCCCCUCUUAGGUCCUCAUCUCCGUCUUGCAGGUGUUCUGAACUCUCCUUUGGCUAGUCUCUGAUUUUUGAGUCU` is recorded as 0.504.
`CUCCUUUAAGAGCUGCUUGGUUGUCCAAAAAUGAAAACUCAAAAUAAACUUGGAAGAAGGAAAAAAAUAUGUGUUUAUUCUGAUUCAUUCUUUGUUGGGAAAUUGUCAAU` — result for “RBNS enrichment (R)”: 0.6.

Further values, each from its own experiment
`PhoQ, residues 284 288 289 292 302 303 SSTLLI` has a fold induction of 9.44 (PhoP, residues 12 14 15 18 19 VQGLL (Escherichia coli, UniProt P23836); Sort-seq, item: YFP reporter; E. coli; PhoQ-PhoP variant library, with: 10 µM Mg2+; baseline: high Mg2+ state, higher = stronger signaling).

A few entries again (sample 2):
With `AGCAAGCCAAGGACUCAGGACUGGUUUUACAAAUAUGCCAAGUAGAUAUGGAACUAACAAUAGAAUUGGACAACCAAGACCAUGAUGUACUGUACUUUAAUUUAUUUUUAUGAGGAAUAU` the bound/input enrichment was 0.868 ratio.
